Measured values of several laboratories.
Each line is one published result; not all experiments were run side by side. Numbers after ± are the reported error.

For `COc1c(N2CC3CCCN(C(=O)OCc4cnc([N+](=O)[O-])s4)C3C2)c(F)cc2c(=O)c(C(=O)O)cn(C3CC3)c12` (stereo not drawn), the reduction potential was -0.83 V (cyclic voltammetry; anhydrous acetonitrile; concentration not given; relative to: Ag/AgCl).
`CSCC[C@@H]1NC(=O)[C@H](C(C)C)NC(=O)[C@H](CCCNC(=N)N)NC(=O)[C@@H]2CCCN2C(=O)CNC(=O)[C@@H](NC(=O)CNC(=O)[C@H](CO)NC(=O)CNC(=O)[C@H](CO)NC(=S)Nc2ccc(C[C@H]3CN(CC(=O)O)CCN(CC(=O)O)CCN3CC(=O)O)cc2)CSSC[C@@H](C(N)=O)NC(=O)[C@@H]2CCCN2C(=O)CNC(=O)[C@H](CCC(=O)O)NC(=O)[C@H](CC(=O)O)NC(=O)[C@H](CC(=O)O)NC(=O)CNC(=O)[C@H](CC(C)C)NC(=O)[C@H](Cc2c[nH]cn2)NC(=O)[C@H](CC(C)C)NC(=O)CNC(=O)[C@H](Cc2c[nH]cn2)NC1=O` [copper-64 labelled] has a clearance half-life of 24.1 ± 1.5 min (dynamic PET; CD rat, myocardial infarction, infarct myocardium fibrosis; intravenous, 18.5 MBq).
`C=CC(=O)Nc1cccc(Cn2ncc3cnc(Nc4cnn(CCOC)c4)nc32)c1` has a serum AST of 85 ± 13.4 U/L (Sprague-Dawley rat male, serum; oral, 180 mg/kg, day 28, 28-day subacute toxicity).
With `COc1cnc2cccc(N3CCc4c(cc(Cn5ccnc5)cc4-c4cn(C)nc4C(F)(F)F)C3=O)c2c1` the body weight was 30.7 ± 1.2 g (CD-1 mice; intraperitoneal, 100 mg/kg once daily, day 5).
`N=C(N)NCCC[C@@H](NC(=O)[C@H](N)Cc1c[nH]c2ccccc12)C(=O)N[C@H](CCCCN)C(=O)N[C@H](Cc1c[nH]c2ccccc12)C(=O)N[C@H](CCCNC(=N)N)C(=O)N[C@H](CCCCN)C(=O)N[C@H](Cc1c[nH]c2ccccc12)C(=O)N[C@H](CCCNC(=N)N)C(=O)N[C@H](CCCCN)C(=O)N[C@H](Cc1c[nH]c2ccccc12)C(=O)N[C@H](CCCNC(=N)N)C(=O)N[C@H](CCCCN)C(N)=O` gave a survival of 100% (mouse; intraperitoneal, 20 mg/kg single dose, day 3).
`CC[C@H](C)[C@H](NC(=O)CNC(=O)[C@H](CC(C)C)NC(=O)[C@H](Cc1ccccc1)NC(=O)CN)C(=O)N[C@@H](CC(C)C)C(=O)N[C@@H](Cc1ccccc1)C(=O)N[C@@H](Cc1c[nH]cn1)C(=O)NCC(=O)N[C@H](C(=O)N[C@@H](Cc1c[nH]cn1)C(=O)N[C@@H](Cc1c[nH]cn1)C(=O)NCC(=O)N[C@@H](CCCNC(=N)N)C(=O)N[C@@H](CCCCN)C(=O)N[C@@H](CCCCN)C(=O)N[C@@H](C)C(=O)N[C@@H](CC(C)C)C(=O)N[C@@H](Cc1c[nH]cn1)C(=O)N[C@@H](CCSC)C(=O)N[C@@H](CC(N)=O)C(=O)N[C@@H](CO)C(=O)N[C@@H](CCC(=O)O)C(=O)N[C@@H](CCCNC(=N)N)C(=O)N[C@@H](CCCNC(=N)N)C(=O)N[C@@H](CO)C(=O)O)C(C)C` — result for “acute toxic concentration”: 25 µM (zebrafish embryos 28 hpf, E3 medium; 1 h).
The AUC(0-t) of `CC1(C)C(=O)N(c2ccc(C#N)c(C(F)(F)F)c2)C(=S)N1c1ccc(C(=O)O)c(F)c1` is reported as 10500 ± 2530 ng·h/mL (human, male, plasma; oral, 40 mg, single dose, fasting).
With `CC[C@H](C)[C@H](NC(=O)[C@H](CCCCN)NC(=O)CNC(=O)[C@H](CC(C)C)NC(=O)[C@H](Cc1ccccc1)NC(=O)[C@H](CCCCN)NC(=O)[C@H](CO)NC(=O)[C@H](Cc1ccccc1)NC(=O)[C@H](Cc1c[nH]c2ccccc12)NC(=O)[C@H](CCC(N)=O)NC(=O)[C@@H](NC(=O)[C@H](Cc1ccccc1)NC(=O)CCCCCNC(=O)CN1CCN(CC(=O)O)CCN(CC(=O)O)CCN(CC(=O)O)CC1)C(C)C)C(=O)N[C@@H](CCC(=O)O)C(=O)N1CCC[C@H]1C(=O)N[C@@H](CC(=O)O)C(=O)N[C@H](C(=O)N[C@@H](CO)C(=O)N[C@@H](CCC(N)=O)C(=O)N[C@H](C(=O)N[C@@H](CCC(N)=O)C(=O)N[C@@H](CC(=O)O)C(=O)N1CCC[C@H]1C(=O)N[C@@H](CC(N)=O)C(=O)N[C@@H](CC(=O)O)C(=O)N[C@@H](CCC(N)=O)C(=O)N[C@@H](Cc1ccc(O)cc1)C(=O)N[C@@H](CCC(=O)O)C(=O)N1CCC[C@H]1C(=O)N[C@@H](Cc1ccccc1)C(=O)O)C(C)C)C(C)C` [copper-64 labelled] the tissue uptake was 1.61 ± 0.2 %ID/g (C57BL/6 mice, male, tumour-free, blood; 4 h).
The gamma-glutamyltransferase activity of `O=C1NC2(CC2)COc2ncc(F)cc2[C@H]2COCCN2c2ccn3ncc1c3n2` is reported as 0.5 ± 0.3 U/L (Sprague-Dawley rat, female, serum; oral, 20 mg/kg/day, 4 weeks daily, end of treatment).
For `COc1ccc(CNc2ccc3c(c2)S(=O)(=O)C=C3)cc1`, “mean corpuscular haemoglobin concentration” read 293 g/L (male C57BL/6 mice, blood; intraperitoneal, 20 mg/kg, day 8, group average).
For `CC(C)[C@H](NC(=O)[C@@H](NC(=O)[C@H](CCCNC(=N)N)NC(=O)[C@H](CCCNC(=N)N)NC(=O)[C@H](CCCNC(=N)N)NC(=O)[C@H](CCC(N)=O)NC(=O)[C@H](CCCNC(=N)N)NC(=O)[C@H](CCCNC(=N)N)NC(=O)[C@H](CCCCN)NC(=O)[C@H](CCCCN)NC(=O)[C@H](CCCNC(=N)N)NC(=O)CN)[C@@H](C)O)C(=O)N[C@H](C(=O)N[C@@H](CO)C(=O)N1CCC[C@H]1C(=O)O)[C@@H](C)O`, the kidney weight was 0.345 ± 0.074 g (ICR mouse, male, left kidney; intranasal, 5 mg/kg daily, 4 weeks).
The tissue uptake of `C[C@H](O)[C@@H](NC(=O)[C@H]1CCCN1C(=O)[C@@H](CCCCN)NC(=O)[C@@H](CO)NC(=O)[C@@H](Cc1ccc(O)cc1)NC(=O)[C@@H](CC(N)=O)NC(=O)CCOCCOCCOCCNC(=O)CN1CCN(CC(=O)O)CCN(CC(=O)O)CCN(CC(=O)O)CC1)C(=O)N[C@H](CC(=O)O)C(=O)N[C@H](CCCNC(=N)N)C(=O)N[C@H](CCC(N)=O)C(=O)N[C@H](Cc1ccc(O)cc1)C(=O)N[C@H](Cc1c[nH]cn1)C(=O)N[C@H](Cc1ccccc1)C(N)=O` [copper-64 labelled] is reported as 0.17 ± 0.01 %ID/g (C57BL/6J mice, spleen; intravenous, 1.85 MBq, 1 h, radiolabelled).

Some of these lines once more:
With `COc1cnc2cccc(N3CCc4c(cc(Cn5ccnc5)cc4-c4cn(C)nc4C(F)(F)F)C3=O)c2c1` the body weight was 30.7 ± 1.2 g (CD-1 mice; intraperitoneal, 100 mg/kg once daily, day 5).
